# Measurements of several laboratories.
# Protocols differ between the studies behind these lines.
# Organism: Acinetobacter baumannii
SMILES,test,system,conditions,quantity,result
CC(C)C[C@H](NC(=O)[C@H](Cc1ccc(O)cc1)NC(=O)[C@@H]1CCCN1C(=O)[C@H](CCCNC(=N)N)NC(=O)[C@@H]1CCCN1C(=O)[C@H](CCCCN)NC(=O)[C@H](CC(=O)O)NC(=O)[C@@H]1CCCN1C(=O)[C@H](CCCNC(=N)N)NC(=O)C1(N)CCCCC1)C(=O)N1CCC[C@H]1C(=O)N[C@@H](CCCNC(=N)N)C(=O)N1CCC[C@H]1C(=O)N[C@@H](CCCNC(=N)N)C(=O)N1CCC[C@H]1C(=O)N1CCC[C@H]1C(=O)N[C@@H](CCCNC(=N)N)C(=O)N1CCC[C@H]1C(=O)N[C@H](C(=O)N[C@@H](CCCNC(=N)N)C(=O)N[C@@H](CSc1c(F)c(F)c(SC[C@H](NC(=O)[C@H](CCCNC(=N)N)NC(=O)[C@@H](NC(=O)[C@@H]2CCCN2C(=O)[C@H](CCCNC(=N)N)NC(=O)[C@@H]2CCCN2C(=O)[C@@H]2CCCN2C(=O)[C@H](CCCNC(=N)N)NC(=O)[C@@H]2CCCN2C(=O)[C@H](CCCNC(=N)N)NC(=O)[C@@H]2CCCN2C(=O)[C@H](CC(C)C)NC(=O)[C@H](Cc2ccc(O)cc2)NC(=O)[C@@H]2CCCN2C(=O)[C@H](CCCNC(=N)N)NC(=O)[C@@H]2CCCN2C(=O)[C@H](CCCCN)NC(=O)[C@H](CC(=O)O)NC(=O)[C@@H]2CCCN2C(=O)[C@H](CCCNC(=N)N)NC(=O)C2(N)CCCCC2)C(C)C)C(=O)NN)c(F)c1F)C(=O)NN)C(C)C,DiOC2 flow cytometry,,0.1 × MBC,membrane depolarization,> 50%
NCCc1cccc(-c2nc(=O)c3ccccc3s2)n1,microbial growth,NCTC13424,,EC50,27 µM
CC[C@@H](C)[C@@H](NC(=O)[C@@H](C)NC(=O)[C@@H](CCCCN)NC(=O)[C@@H](CC(C)C)NC(=O)[C@@H](CC(C)C)NC(=O)[C@H](NC(=O)[C@@H](CCCCN)NC(=O)[C@@H](CC(C)C)NC(=O)[C@@H](CCCCN)NC(=O)[C@@H](CCCCN)NC(=O)[C@@H](CCCCN)NC(=O)[C@@H](CCCCN)NC(=O)[C@@H](C)NC(=O)[C@@H](CCCCN)NC(=O)[C@@H](CO)NC(=O)[C@@H](Cc1ccccc1)NC(=O)[C@H](NC(=O)[C@@H](CCCCN)NC(=O)[C@@H](CC(C)C)NC(=O)[C@@H](Cc1ccccc1)NC(=O)[C@@H](CO)NC(=O)[C@@H](CCCCN)NC(=O)[C@@H](Cc1c[nH]c2ccccc12)NC(=O)[C@@H](CCCCN)NC(C)=O)[C@H](C)O)[C@H](C)O)C(=O)N[C@H](CO)C(=O)N[C@H](CCCCN)C(N)=O,,11 isolates,,MIC geometric mean,0.8 µM
CCCCCCCCCCCCCC(=O)N[C@@H](Cc1ccc(O)cc1)C(=O)N[C@@H](CCCCN)C(=O)N[C@@H](CCCCN)C(=O)N[C@@H](CCCCN)C(=O)N[C@@H](CCCCN)C(N)=O,,clinical isolate,,MBC,128 µg/mL
Cc1ccc2ccc3ccc(C)nc3c2n1.Cc1ccc2ccc3ccc(C)nc3c2n1.O.[Cl-].[Cl-].[Cl-].[Yb+3],bacterial growth,,,inoculation time,48 h
C[C@@H](O)[C@H](NC(=O)c1ccc(C#Cc2ccc(CN3CCOCC3)cc2)cc1)C(=O)NO,"microbial growth, broth dilution",,clinical isolate,MIC90,> 64 µg/mL
CCCCCCCCCCCCCC(=O)N[C@@H](Cc1ccccc1)C(=O)N[C@@H](CCCCN)C(=O)N[C@@H](CCCCN)C(=O)N[C@@H](CCCCN)C(=O)N[C@@H](CCCCN)C(N)=O,,clinical isolate,,MBC,128 µg/mL
Oc1ccc(C(F)(F)F)cc1-c1nc2c(Cl)cc(Cl)cc2[nH]1,,colistin-resistant,"concentration not given, with: polymyxin B nonapeptide up to 10 µg/mL",MIC change,no effect
CCCCCCCCCCCCCCCC(=O)NCCCC[C@H](N)C(=O)N[C@@H](CCCCN)C(=O)N[C@@H](CCCCN)C(=O)N[C@@H](CCCCN)C(=O)N[C@@H](CCCCN)C(=O)N[C@@H](CCCCN)C(N)=O,,clinical isolate,,MBC,128 µg/mL
Oc1cc(C(F)(F)F)ccc1-c1nc2c(C(F)(F)F)cc(C(F)(F)F)cc2[nH]1,,colistin-resistant,"concentration not given, with: polymyxin B nonapeptide up to 10 µg/mL",MIC change,no effect
CCCCCCCCCCCCCCCC(=O)N[C@@H](CCCCN)C(=O)N[C@@H](CCCCN)C(=O)N(CCCCN)CC(=O)N[C@@H](CCCCN)C(=O)N[C@@H](CCCCN)C(N)=O,,clinical isolate,,MBC,128 µg/mL
CC(C)C[C@H](NC(=O)[C@H](Cc1ccc(O)cc1)NC(=O)[C@@H]1CCCN1C(=O)[C@H](CCCNC(=N)N)NC(=O)[C@@H]1CCCN1C(=O)[C@H](CCCCN)NC(=O)[C@H](CC(=O)O)NC(=O)[C@@H]1CCCN1C(=O)[C@H](CCCNC(=N)N)NC(=O)C1(N)CCCCC1)C(=O)N1CCC[C@H]1C(=O)N[C@@H](CCCNC(=N)N)C(=O)N1CCC[C@H]1C(=O)N[C@@H](CCCNC(=N)N)C(=O)N1CCC[C@H]1C(=O)N1CCC[C@H]1C(=O)N[C@@H](CCCNC(=N)N)C(=O)N1CCC[C@H]1C(=O)N[C@H](C(=O)N[C@@H](CCCNC(=N)N)C(=O)N[C@@H](CSc1c(F)c(F)c(-c2c(F)c(F)c(SC[C@H](NC(=O)[C@H](CCCNC(=N)N)NC(=O)[C@@H](NC(=O)[C@@H]3CCCN3C(=O)[C@H](CCCNC(=N)N)NC(=O)[C@@H]3CCCN3C(=O)[C@@H]3CCCN3C(=O)[C@H](CCCNC(=N)N)NC(=O)[C@@H]3CCCN3C(=O)[C@H](CCCNC(=N)N)NC(=O)[C@@H]3CCCN3C(=O)[C@H](CC(C)C)NC(=O)[C@H](Cc3ccc(O)cc3)NC(=O)[C@@H]3CCCN3C(=O)[C@H](CCCNC(=N)N)NC(=O)[C@@H]3CCCN3C(=O)[C@H](CCCCN)NC(=O)[C@H](CC(=O)O)NC(=O)[C@@H]3CCCN3C(=O)[C@H](CCCNC(=N)N)NC(=O)C3(N)CCCCC3)C(C)C)C(=O)NN)c(F)c2F)c(F)c1F)C(=O)NN)C(C)C,DiOC2 flow cytometry,,0.1 × MBC,membrane depolarization,> 50%
